{"data": "Experimental data from different studies", "note": "Numbered parts are unrelated; each lists some results of a single study. Several values in a cell are separate wells, animals, samples, runs or records."}
{"data": "Set 1", "cell line": "normal-adjacent organoid sample E", "technique": "CellTiter-Glo", "concentration": "1 µM", "notes": "replicate mean", "baseline": "DMSO"}
{"SMILES": "CN(C)c1ncnc(-c2ccc3nc(Nc4cc(CN5CCN(C(=O)CC(F)(F)F)CC5)ccn4)[nH]c3c2)c1Cl", "viability": "90%"}
{"SMILES": "Cn1c(-c2csc(C3CCN(Cc4nc5ncccc5[nH]4)CC3)n2)nc2ccccc21", "viability": "114%"}
{"SMILES": "CCc1ccccc1C(=O)Nc1n[nH]c2c(C)c(F)c(C3C(C#N)=C(C)N(C)C(C)=C3C#N)cc12", "viability": "87.6%"}
{"SMILES": "CN1CCN(C(=O)C(C)(C)c2ccc(C(=O)Nc3cn4cc(-c5ccncc5)ccc4n3)cc2)CC1", "viability": "40.2%"}
{"SMILES": "c1ccc2oc(-c3csc(C4CCN(Cc5nc6ncccc6[nH]5)CC4)n3)cc2c1", "viability": "49.6%"}
{"SMILES": "CC(=O)N1CCC(c2ccc(C(=O)NC(=N)N)cc2C(F)(F)F)CC1", "viability": "96.3%"}
{"SMILES": "CN(C(=O)c1ccccc1)c1cc(N(C)c2ccc3c(c2)CCc2ccc(C(=O)NCCN4CCOCC4)cc2C3=O)ccc1F", "viability": "110%"}
{"SMILES": "CN(C)C(=O)Cn1cc(-c2nc(C3(c4ccc(-c5cnc(N)nc5)cc4)CC3)no2)cn1", "viability": "94%"}
{"SMILES": "Cc1c(C(=O)O)cc(-c2ccc(C3CCNCC3)cc2)c2ccc(-c3ccc(C(F)(F)F)cc3)cc12", "viability": "109%"}
{"SMILES": "C[C@H](NC(=O)c1cnc2n1[C@](C)(Cc1ccc(C#N)cc1)C(=O)N2c1cc(Cl)c(F)c(Cl)c1)C(=O)NC1(c2ccccn2)CC1", "viability": "116%"}
{"SMILES": "CNCc1ccccc1-c1csc([C@@H](C)Nc2nc(C)nc3cc(OC)c(OC)cc23)c1", "viability": "49.6%"}
{"SMILES": "O=C(NC[C@@H]1[C@H]2CN(C(=O)OCc3cc(C(F)(F)F)cc(C(F)(F)F)c3)C[C@@H]12)c1ccc2[nH]nnc2c1", "viability": "82.8%"}
{"data": "Set 2", "cell line": "HaCaT", "concentration": "100 µM", "time": "36 h"}
{"SMILES": "O=C(/C=C/c1ccc(O)cc1)c1ccc(O)cc1O", "viability": "100%"}
{"SMILES": "Cc1ccc(NC(=O)C2(c3ccc4c(c3)OC(F)(F)O4)CC2)nc1-c1cccc(C(=O)O)c1", "viability": "84.2%"}
{"SMILES": "CC(C)C(=O)Nc1ccc([N+](=O)[O-])c(C(F)(F)F)c1", "viability": "50.1%"}
{"SMILES": "CCN1CCN(C(=O)N[C@@H](C(=O)N[C@@H]2C(=O)N3C(C(=O)O)=C(CSc4nnnn4C)CS[C@H]23)c2ccc(O)cc2)C(=O)C1=O", "viability": "113%"}
{"SMILES": "CCOC(=O)Nc1ccc(NCc2ccc(F)cc2)nc1N", "viability": "76.8%"}
{"data": "Set 3", "cell line": "mouse MPNST tumor cells", "technique": "high-content immunofluorescence imaging", "refers to": "nuclear SOX9", "concentration": "10 µM", "time": "12 h", "notes": "mean of 2 replicates", "baseline": "DMSO control", "reading": "higher = more nuclear SOX9"}
{"Compound": "Cc1cc(NC(=O)Nc2ccc(F)c(F)c2)n(-c2ccccc2)n1", "nuclear SOX9 intensity": "91 % of DMSO"}
{"Compound": "CO/N=C(\\C(=O)N[C@@H]1C(=O)N2C(C(=O)O)=C(COC(C)=O)CS[C@H]12)c1csc(N)n1", "nuclear SOX9 intensity": "103 % of DMSO"}
{"Compound": "COc1cc2c(cc1-c1c(C)noc1C)ncc1[nH]c(=O)n([C@H](C)c3ccccn3)c12", "nuclear SOX9 intensity": "142 % of DMSO"}
{"Compound": "CNNCc1ccc(C(=O)NC(C)C)cc1", "nuclear SOX9 intensity": "94.6 % of DMSO and 90.3 % of DMSO"}
{"Compound": "CCOC(=O)c1ccc(OC(=O)CCCCCNC(=N)N)cc1", "nuclear SOX9 intensity": "98.1 % of DMSO"}
{"Compound": "Cc1nc(Nc2ccc(F)cc2)sc1C(=O)c1ccsc1", "nuclear SOX9 intensity": "123 % of DMSO"}
{"Compound": "CCN(CC)CCNC(=O)c1cc(S(C)(=O)=O)ccc1OC", "nuclear SOX9 intensity": "109 % of DMSO"}
{"data": "Set 4", "target": "Ribosomal protein S6 kinase alpha-1 (RPS6KA1, Homo sapiens, UniProt Q15418)", "effect on": "enzyme activity", "mode": "inhibitor", "concentration": "0.5 µM", "baseline": "control", "sequence of UniProt Q15418 (whole entry, looked up)": "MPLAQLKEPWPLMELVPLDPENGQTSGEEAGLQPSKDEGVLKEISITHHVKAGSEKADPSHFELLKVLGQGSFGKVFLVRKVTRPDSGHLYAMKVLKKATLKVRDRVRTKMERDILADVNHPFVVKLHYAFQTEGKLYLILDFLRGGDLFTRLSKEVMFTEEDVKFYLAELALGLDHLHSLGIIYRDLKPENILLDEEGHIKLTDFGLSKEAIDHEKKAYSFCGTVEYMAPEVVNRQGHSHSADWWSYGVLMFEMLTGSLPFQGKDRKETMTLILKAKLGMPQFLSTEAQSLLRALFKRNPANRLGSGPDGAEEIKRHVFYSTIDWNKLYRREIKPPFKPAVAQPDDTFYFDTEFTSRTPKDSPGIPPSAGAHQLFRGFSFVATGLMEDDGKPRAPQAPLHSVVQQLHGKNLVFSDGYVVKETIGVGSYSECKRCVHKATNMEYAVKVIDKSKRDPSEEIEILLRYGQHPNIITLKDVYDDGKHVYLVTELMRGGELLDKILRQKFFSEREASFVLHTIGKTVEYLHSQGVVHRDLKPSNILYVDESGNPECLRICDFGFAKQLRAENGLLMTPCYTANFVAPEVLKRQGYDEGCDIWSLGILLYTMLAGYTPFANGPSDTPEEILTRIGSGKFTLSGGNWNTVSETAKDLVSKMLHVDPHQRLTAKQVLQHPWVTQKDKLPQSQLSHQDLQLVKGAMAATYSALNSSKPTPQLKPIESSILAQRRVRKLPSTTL"}
{"Compound": "N#CC(c1ccnc(NCCc2cccnc2)n1)c1nc2ccccc2s1 (centres unmarked)", "remaining activity": "79%"}
{"Compound": "O=C1NC(=O)/C(=C/c2ccc3c(c2)OC(F)(F)O3)S1", "remaining activity": "71.1%"}
{"Compound": "Nc1nc(Nc2ccc(S(N)(=O)=O)cc2)nn1C(=S)Nc1c(F)cccc1F", "remaining activity": "5.34%"}
{"Compound": "O=c1c(-c2ccc(F)cc2)c(-c2ccncc2)[nH]n1-c1ccc(Cl)cc1", "remaining activity": "103%"}
{"Compound": "CCN(CC)CCCCN1c2ccccc2Oc2ccc(Cl)cc21", "remaining activity": "97.5%"}
{"Compound": "CC(C)(C)c1nc2c3cc[nH]c(=O)c3c3cc(F)ccc3c2[nH]1", "remaining activity": "38.6%"}
{"Compound": "N#C/C(=C(/N)SC1C=CC=CC1)c1cccc(C(O)c2ccncc2)c1 (centres unmarked)", "remaining activity": "101%"}
{"Compound": "FC(F)(F)c1ccc(/C=C/c2nc(COc3ccc(CCCCn4ccnn4)cc3)co2)cc1", "remaining activity": "97.9%"}
{"Compound": "Clc1ccc(Nc2nnc(Cc3ccncc3)c3ccccc23)cc1", "remaining activity": "113%"}
{"Compound": "O=C(c1ccccc1)c1ccc(N2CCOCC2)cc1O", "remaining activity": "96.2%"}
{"Compound": "CCCCc1c(-c2ccc(O)cc2)[nH]c2nccnc12", "remaining activity": "82.6%"}
{"Compound": "C[C@@H](N)[C@H]1CC[C@H](C(=O)Nc2ccncc2)CC1", "remaining activity": "84.9%"}
{"Compound": "CNc1cc2c(Nc3cccc(Br)c3)ncnc2cn1", "remaining activity": "90.9%"}
{"Compound": "CC(C)n1cnc2c(Nc3cccc(Cl)c3)nc(NCCO)nc21", "remaining activity": "69.1%"}
{"Compound": "O=Nc1c(-c2c(O)[nH]c3ccccc23)[nH]c2ccccc12", "remaining activity": "39.6%"}
{"Compound": "CC(C)N(CCC(=O)c1ccc2ccccc2c1)Cc1ccccc1", "remaining activity": "97.6%"}
{"Compound": "O=C1c2ccccc2-c2nc3nnnn3nc21", "remaining activity": "53.1%"}
{"Compound": "NC(=O)c1cccc(-c2cc(Nc3ccc(OC(F)(F)F)cc3)ncn2)c1", "remaining activity": "92.7%"}
{"Compound": "c1cc(-c2cnn3cc(-c4ccc(OCCN5CCCCC5)cc4)cnc23)ccn1", "remaining activity": "79.2%"}
{"Compound": "O=C(O)/C=C/c1cc(Br)c(Br)c(Br)c1Br", "remaining activity": "90.5%"}
